# Results collected from several papers.
# Numbers after ± are the reported error.
Molecule,assay,system,setting,scale,measurement,value
CCc1nnc(-c2c(OC)cc(-c3cnc4cc(-c5cnn(C)c5)ccn34)cc2OC)o1,"RT-qPCR, item: Fgf23","male C57BL/6J mice, cortical bone","oral gavage, dose not given, 3 weeks",,mRNA level,increased
COC[C@@H](NC(C)=O)C(=O)NCc1ccc(OCc2ccc(OC(F)(F)F)cc2)cc1,6 Hz seizures,mouse,intraperitoneal,,ED50,23 mg/kg
CC[C@H](C)[C@H](NC(=O)[C@@H](NC(=O)[C@H](CC(=O)O)NC(C)=O)[C@@H](C)O)C(=O)N[C@@H](CCCNC(=N)N)C(=O)N[C@@H](CC(C)C)C(=O)N[C@@H](CC(C)C)C(=O)N[C@@H](Cc1ccccc1)C(=O)N[C@@H](CCC(N)=O)C(=O)N[C@@H](CC(C)C)C(=O)N[C@@H](CCSC)C(=O)N[C@@H](CCCNC(=N)N)C(=O)N1CCC[C@H]1C(=O)N1CCC[C@H]1C(=O)N[C@@H](CC(N)=O)C(=O)N[C@@H](CCSC)C(=O)N[C@H](C(=O)N1CCC[C@H]1C(=O)N[C@@H](C)C(=O)N[C@H](C(=O)N[C@@H](CC(N)=O)C(=O)N[C@@H](C)C(N)=O)C(C)C)[C@@H](C)O,item: HA-23 tetramer,"antigen-experienced tetramer+ CD4 T cells, healthy adults, HLA-DRB1*0101",dose not given,,α4β7+ CCR9− cells,75%
Cc1ccc(/C=C/C(=O)O)cc1-c1cc2c(cc1C)C(C)(C)CCC2(C)C,"RNA sequencing, item: Scd1","rat, brain","dose not given, 24 h",reference: vehicle,log2 fold change,-0.007
O=C1C=CC(=O)C(c2cc(Cl)ccc2Cl)=C1,"ELISPOT, item: IFNγ+ cells",mouse splenocytes,"concentration not given, maximal induction, comparable dose",reference: SSG,fold induction,~58 fold
CSCC[C@H](NC(=O)CNC(=O)[C@H](CC(=O)O)NC(=O)[C@@H](NC(=O)[C@@H](NC(=O)[C@@H](NC(=O)CNC(=O)[C@H](CCC(N)=O)NC(=O)[C@H](CCSC)NC(=O)[C@H](CC(=O)O)NC(=O)[C@H](C)NC(=O)[C@H](C)NC(=O)[C@@H](NC(=O)[C@H](CO)NC(=O)[C@@H](N)CC(C)C)[C@@H](C)O)C(C)C)C(C)C)[C@@H](C)O)C(=O)N[C@@H](C)C(=O)N[C@@H](CO)C(=O)NCC(=O)N[C@@H](CC(C)C)C(=O)N[C@@H](CC(=O)O)C(=O)N[C@@H](CCCCN)C(=O)N[C@@H](CC(=O)O)C(=O)N[C@@H](Cc1ccc(O)cc1)C(=O)N[C@@H](CC(C)C)C(=O)N[C@@H](CCCCN)C(=O)N1CCC[C@H]1C(=O)N[C@@H](CC(=O)O)C(=O)N[C@@H](CC(=O)O)C(=O)O,,p53-positive advanced solid tumour patients,"dose not given, seven patients",,stable disease duration,7 to 61 weeks
N=C(N)NCCC[C@H](NC(=O)[C@H](CCCNC(=N)N)NC(=O)[C@H](CCCNC(=N)N)NC(=O)[C@H](CCC(N)=O)NC(=O)[C@H](CCCNC(=N)N)NC(=O)[C@H](CCCNC(=N)N)NC(=O)[C@H](CCCCN)NC(=O)[C@H](CCCCN)NC(=O)[C@H](CCCNC(=N)N)NC(=O)[C@H](Cc1c[nH]c2ccccc12)NC(=O)[C@H](Cc1c[nH]c2ccccc12)NC(=O)[C@@H](N)CSSC[C@H](N)C(=O)N[C@@H](Cc1c[nH]c2ccccc12)C(=O)N[C@@H](Cc1c[nH]c2ccccc12)C(=O)N[C@@H](CCCNC(=N)N)C(=O)N[C@@H](CCCCN)C(=O)N[C@@H](CCCCN)C(=O)N[C@@H](CCCNC(=N)N)C(=O)N[C@@H](CCCNC(=N)N)C(=O)N[C@@H](CCC(N)=O)C(=O)N[C@@H](CCCNC(=N)N)C(=O)N[C@@H](CCCNC(=N)N)C(=O)N[C@@H](CCCNC(=N)N)C(=O)NCC(N)=O)C(=O)NCC(N)=O,,"ROSA26-LSL-tdTomato mice, sensorimotor cortex","intracortical, 200 µM, region 2, added: TAT-Cre 40 µM",,tdTomato-positive neurons,~50%
CC1=C(C(=O)O)C(c2ccccc2Br)NC(=S)N1 (stereo not shown),carotid artery cannulation,"male Wistar rats, anaesthetised","0.3 mL, 3 h",,mean arterial pressure,23.8 ± 0.89 mm Hg
O=P(O)(OCCCc1ccccc1)Oc1c2c(c(OP(=O)(O)OCCCc3ccccc3)c3c1C1CC3c3cc4c(cc31)C1CC4c3ccccc31)C1CC2c2cc3c(cc21)C1CC3c2ccccc21,liposome dye leakage,liposomes 200 nm,"30 min, added: carboxyfluorescein 50 mM",,EC50,3700 nM
CSCCNC(=O)CCC(C)C1CCC2C3C(O)CC4CC(O)CCC4(C)C3CCC12C (stereo not shown),item: Slc10a2,"SPF mice, small intestine","oral gavage, dose not given",reference: vehicle,mRNA level,no effect
COc1cc2ncnc(Oc3cccc(N[11C](=O)Nc4cc(C(C)(C)C(F)(F)F)on4)c3)c2cc1OC,in vitro autoradiography,A-375 melanoma xenograft sections,"11.6 MBq/L, 30 min, 25 °C, radiolabelled compound alone",,radioactivity,347 ± 8.24 PSL/mm²
O=c1c(O)c(-c2cc(O)ccc2O)oc2cc(O)cc(O)c12,,,500 µg/mL,,ABTS radical scavenging,77.2 ± 2.1%
CCN(Cc1ccccc1)C(=O)CCc1nc(CN2CCN(C(=O)Cc3ccc(OC)c(OC)c3)CC2)no1,current clamp,"L4-L6 DRG neurons, rat CCI model",1 µM,,rheobase,375 ± 41.2 pA
CC[C@H](C)[C@H](NC(=O)[C@H](Cc1c[nH]c2ccccc12)NC(=O)[C@H](CCCNC(=N)N)NC(=O)[C@H](CCCCN)NC(=O)[C@H](CC(C)C)NC(=O)[C@H](CC(=O)O)NC(=O)[C@H](Cc1ccccc1)NC(=O)[C@H](C)NC(=O)[C@H](Cc1ccc(O)cc1)NC(=O)[C@H](CC(N)=O)NC(=O)[C@H](Cc1ccc(O)cc1)NC(=O)[C@H](CCCNC(=N)N)NC(=O)[C@H](Cc1ccc(O)cc1)NC(=O)[C@H](Cc1ccc(O)cc1)NC(=O)[C@@H](NC(=O)[C@H](CC(C)C)NC(=O)[C@H](C)NC(=O)[C@H](CC(N)=O)NC(=O)[C@H](Cc1ccc(O)cc1)NC(C)=O)[C@@H](C)CC)C(=O)N[C@@H](Cc1ccc(O)cc1)C(=O)N[C@@H](CC(C)C)C(N)=O,item: HA-52 tetramer,"tetramer+ CD4 T cells, PBMC, healthy adults, HLA-DRB1*0101","dose not given, CD62L−CD45RA+/− or CD62L+CD45RA−",,antigen-experienced T cells,22.6%
CC(C)C[C@H](NC(=O)[C@H](Cc1ccccc1)NC(=O)CNC(=O)CNC(=O)[C@H](Cc1ccc(O)cc1)NC(=O)OC(C)c1ccccc1[N+](=O)[O-])C(=O)O (stereo partly shown),"GIRK current, MOR agonist","rat, locus coeruleus neurons","10 µM, added: 100 mW 355 nm light, 50 ms",,activation time constant,0.379 ± 0.03 s
O=C(O)CCn1c(=O)oc2cc(Cl)c(Cl)cc21,,"rat, acute pancreatitis, serum","dose not given, 6 h",,KL-6 level,16 ± 2 ng/mL
somatostatin,,"Sprague-Dawley rat, streptozotocin-induced diabetes, retina","eye drops, 10 mg/mL, score 5",,GFAP-positive glial activation,0%
CC(C)C[C@@H]1NC(=O)[C@@H]2CSSC[C@@H]3NC(=O)[C@H](Cc4c[nH]c5ccccc45)NC(=O)[C@H]([C@@H](C)O)NC(=O)CNC(=O)[C@H](C)NC(=O)[C@H](CO)NC(=O)[C@H](CCCCN)NC(=O)[C@@H](N)CSSC[C@@H]4NC(=O)[C@H](CSSC[C@H](NC(=O)[C@H](Cc5ccccc5)NC(=O)CNC(=O)[C@H](C(C)C)NC1=O)C(=O)N[C@@H](Cc1ccc(O)cc1)C(=O)NCC(=O)N[C@@H](C(C)C)C(=O)N[C@@H](CO)C(=O)N[C@H](C(=O)O)CSSC[C@H](NC(=O)[C@H](CO)NC(=O)CNC4=O)C(=O)NCC(=O)N2)NC(=O)CNC(=O)[C@H](Cc1c[nH]cn1)NC(=O)[C@@H]1CCCN1C(=O)[C@H](CC(=O)O)NC(=O)[C@H](Cc1ccccc1)NC(=O)CNC3=O,vasorelaxation,"rat, aortic rings",added: phenylephrine 0.1 µM precontraction,,EC50,~100 nM
C[C@@H](NC(=O)[C@@H](N)Cc1ccc(O)cc1)C(=O)NCC(=O)N(C)[C@@H](Cc1ccccc1)C(=O)NCCO,,C57BL/6 mouse striatal membranes,concentration not given,reference: basal,stimulation,1.68 ± 0.02 fold
Cc1ccc(COP(=O)(O)Oc2c3c(c(OP(=O)(O)OCc4ccc(C)cc4)c4c2C2CC4c4cc5c(cc42)C2CC5c4ccccc42)C2CC3c3cc4c(cc32)C2CC4c3ccccc32)cc1,liposome dye leakage,liposomes 200 nm,"30 min, added: carboxyfluorescein 50 mM",,EC50,3000 nM
O=C(O)/C=C/c1ccc(O)cc1,,,250 µg/mL,,ABTS radical scavenging,66.6 ± 1.2%
O=C(O)CCCC(=O)O,,,250 µg/mL,,ABTS radical scavenging,63.1 ± 2.1%

# Some of these lines once more:
Molecule,assay,system,setting,scale,measurement,value
CC(C)C[C@H](NC(=O)[C@H](Cc1ccccc1)NC(=O)CNC(=O)CNC(=O)[C@H](Cc1ccc(O)cc1)NC(=O)OC(C)c1ccccc1[N+](=O)[O-])C(=O)O (stereo partly shown),"GIRK current, MOR agonist","rat, locus coeruleus neurons","10 µM, added: 100 mW 355 nm light, 50 ms",,activation time constant,0.379 ± 0.03 s
O=C(O)CCn1c(=O)oc2cc(Cl)c(Cl)cc21,,"rat, acute pancreatitis, serum","dose not given, 6 h",,KL-6 level,16 ± 2 ng/mL
somatostatin,,"Sprague-Dawley rat, streptozotocin-induced diabetes, retina","eye drops, 10 mg/mL, score 5",,GFAP-positive glial activation,0%
